Results gathered from unrelated publications.
Several values in a cell are separate wells, animals, samples, runs or records. Numbers after ± are the reported error.
HTR1B: 5-hydroxytryptamine receptor 1B (HTR1B, Homo sapiens, UniProt P28222)
Sequence of UniProt P28222 (whole entry, looked up): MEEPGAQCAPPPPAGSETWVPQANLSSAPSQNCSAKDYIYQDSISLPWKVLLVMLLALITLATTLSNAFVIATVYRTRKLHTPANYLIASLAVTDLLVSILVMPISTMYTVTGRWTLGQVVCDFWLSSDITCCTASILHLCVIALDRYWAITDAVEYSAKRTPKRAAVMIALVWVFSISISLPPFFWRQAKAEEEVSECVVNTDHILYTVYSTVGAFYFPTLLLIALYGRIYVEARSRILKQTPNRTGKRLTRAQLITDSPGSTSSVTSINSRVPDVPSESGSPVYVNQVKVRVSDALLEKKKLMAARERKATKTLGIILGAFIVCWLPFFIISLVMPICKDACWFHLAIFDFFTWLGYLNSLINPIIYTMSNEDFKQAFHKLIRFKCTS
SIRT3: NAD-dependent protein deacetylase sirtuin-3, mitochondrial (SIRT3, Homo sapiens, UniProt Q9NTG7)
Sequence of UniProt Q9NTG7 (whole entry, looked up): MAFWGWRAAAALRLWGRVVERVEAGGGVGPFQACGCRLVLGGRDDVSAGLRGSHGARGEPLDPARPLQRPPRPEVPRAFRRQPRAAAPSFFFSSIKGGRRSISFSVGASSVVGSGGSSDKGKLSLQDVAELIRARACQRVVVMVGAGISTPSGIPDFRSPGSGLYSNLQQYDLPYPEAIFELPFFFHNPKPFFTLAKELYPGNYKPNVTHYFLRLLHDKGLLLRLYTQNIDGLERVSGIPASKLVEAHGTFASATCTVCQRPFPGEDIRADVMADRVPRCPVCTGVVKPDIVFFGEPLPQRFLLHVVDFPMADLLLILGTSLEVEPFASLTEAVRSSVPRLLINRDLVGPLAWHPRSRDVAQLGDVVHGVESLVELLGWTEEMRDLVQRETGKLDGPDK
Sequence of UniProt P61073 (whole entry, looked up): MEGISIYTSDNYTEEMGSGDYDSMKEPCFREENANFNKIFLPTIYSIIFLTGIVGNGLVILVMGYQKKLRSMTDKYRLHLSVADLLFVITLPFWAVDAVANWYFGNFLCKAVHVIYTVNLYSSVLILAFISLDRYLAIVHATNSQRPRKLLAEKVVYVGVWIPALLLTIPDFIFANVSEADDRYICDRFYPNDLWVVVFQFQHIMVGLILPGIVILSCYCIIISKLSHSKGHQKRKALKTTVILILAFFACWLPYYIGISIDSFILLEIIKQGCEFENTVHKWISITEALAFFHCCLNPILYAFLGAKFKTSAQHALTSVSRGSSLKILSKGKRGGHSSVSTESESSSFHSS
Sequence of UniProt Q4FZB7 (whole entry, looked up): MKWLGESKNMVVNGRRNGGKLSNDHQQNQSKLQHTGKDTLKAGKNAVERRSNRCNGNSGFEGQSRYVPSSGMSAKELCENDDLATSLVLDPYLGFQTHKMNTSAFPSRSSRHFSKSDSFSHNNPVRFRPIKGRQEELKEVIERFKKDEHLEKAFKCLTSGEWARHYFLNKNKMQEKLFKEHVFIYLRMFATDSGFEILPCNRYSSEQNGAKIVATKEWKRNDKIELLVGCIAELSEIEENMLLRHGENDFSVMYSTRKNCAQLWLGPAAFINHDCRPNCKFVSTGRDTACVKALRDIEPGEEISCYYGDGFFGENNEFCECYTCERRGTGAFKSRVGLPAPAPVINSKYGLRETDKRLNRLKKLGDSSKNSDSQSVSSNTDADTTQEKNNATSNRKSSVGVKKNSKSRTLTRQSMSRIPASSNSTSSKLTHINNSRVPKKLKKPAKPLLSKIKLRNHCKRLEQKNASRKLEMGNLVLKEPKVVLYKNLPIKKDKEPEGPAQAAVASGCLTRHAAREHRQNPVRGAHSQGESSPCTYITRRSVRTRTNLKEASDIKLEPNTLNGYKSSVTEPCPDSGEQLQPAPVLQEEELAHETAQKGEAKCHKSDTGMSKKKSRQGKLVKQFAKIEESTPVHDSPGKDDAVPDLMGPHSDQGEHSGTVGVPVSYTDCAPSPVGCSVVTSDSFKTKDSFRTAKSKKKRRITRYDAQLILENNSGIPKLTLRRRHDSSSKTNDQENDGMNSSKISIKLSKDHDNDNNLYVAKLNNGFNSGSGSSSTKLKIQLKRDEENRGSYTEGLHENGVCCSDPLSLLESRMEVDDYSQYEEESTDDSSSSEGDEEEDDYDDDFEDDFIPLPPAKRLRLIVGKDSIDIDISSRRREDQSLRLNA
Sequence of UniProt Q9UPE1 (whole entry, looked up): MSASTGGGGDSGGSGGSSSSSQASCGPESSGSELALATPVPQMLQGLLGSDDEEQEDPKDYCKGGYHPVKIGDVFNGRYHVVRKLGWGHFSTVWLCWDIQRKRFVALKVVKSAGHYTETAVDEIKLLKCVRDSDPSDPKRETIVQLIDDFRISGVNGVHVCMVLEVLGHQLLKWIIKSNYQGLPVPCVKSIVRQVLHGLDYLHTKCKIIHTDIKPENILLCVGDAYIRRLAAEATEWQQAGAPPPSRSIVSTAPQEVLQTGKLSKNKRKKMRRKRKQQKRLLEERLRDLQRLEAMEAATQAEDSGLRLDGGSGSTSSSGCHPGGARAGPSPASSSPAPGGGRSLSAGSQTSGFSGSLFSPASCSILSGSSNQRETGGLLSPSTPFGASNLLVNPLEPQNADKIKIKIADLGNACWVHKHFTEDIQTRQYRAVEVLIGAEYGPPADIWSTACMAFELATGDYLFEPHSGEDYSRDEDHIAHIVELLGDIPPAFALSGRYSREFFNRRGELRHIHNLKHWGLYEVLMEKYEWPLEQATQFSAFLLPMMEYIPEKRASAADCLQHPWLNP
Sequence of UniProt Q99571 (whole entry, looked up): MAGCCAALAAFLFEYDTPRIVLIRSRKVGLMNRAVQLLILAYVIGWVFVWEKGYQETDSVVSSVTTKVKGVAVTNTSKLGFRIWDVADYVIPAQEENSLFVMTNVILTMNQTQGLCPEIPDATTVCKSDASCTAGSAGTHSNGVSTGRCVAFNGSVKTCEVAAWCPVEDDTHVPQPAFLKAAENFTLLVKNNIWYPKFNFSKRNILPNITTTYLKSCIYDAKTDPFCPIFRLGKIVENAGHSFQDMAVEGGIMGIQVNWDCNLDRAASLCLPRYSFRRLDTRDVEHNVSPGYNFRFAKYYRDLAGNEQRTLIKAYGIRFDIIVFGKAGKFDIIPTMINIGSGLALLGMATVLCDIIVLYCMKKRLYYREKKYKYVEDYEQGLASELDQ
Sequence of UniProt P00690 (whole entry, looked up): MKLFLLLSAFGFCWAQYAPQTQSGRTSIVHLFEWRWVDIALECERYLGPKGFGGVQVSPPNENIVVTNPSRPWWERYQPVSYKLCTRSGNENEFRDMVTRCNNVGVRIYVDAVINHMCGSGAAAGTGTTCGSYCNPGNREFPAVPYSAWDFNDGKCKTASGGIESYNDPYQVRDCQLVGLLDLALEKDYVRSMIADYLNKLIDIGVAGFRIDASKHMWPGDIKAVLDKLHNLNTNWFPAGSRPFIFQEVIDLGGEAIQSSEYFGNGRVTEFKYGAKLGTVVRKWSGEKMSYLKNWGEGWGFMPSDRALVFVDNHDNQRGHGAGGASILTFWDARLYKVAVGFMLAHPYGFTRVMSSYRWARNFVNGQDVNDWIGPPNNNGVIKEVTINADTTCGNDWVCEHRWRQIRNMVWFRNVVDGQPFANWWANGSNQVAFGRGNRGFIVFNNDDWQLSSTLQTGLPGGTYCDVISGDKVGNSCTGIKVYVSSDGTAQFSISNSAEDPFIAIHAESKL
Sequence of UniProt O15151 (whole entry, looked up): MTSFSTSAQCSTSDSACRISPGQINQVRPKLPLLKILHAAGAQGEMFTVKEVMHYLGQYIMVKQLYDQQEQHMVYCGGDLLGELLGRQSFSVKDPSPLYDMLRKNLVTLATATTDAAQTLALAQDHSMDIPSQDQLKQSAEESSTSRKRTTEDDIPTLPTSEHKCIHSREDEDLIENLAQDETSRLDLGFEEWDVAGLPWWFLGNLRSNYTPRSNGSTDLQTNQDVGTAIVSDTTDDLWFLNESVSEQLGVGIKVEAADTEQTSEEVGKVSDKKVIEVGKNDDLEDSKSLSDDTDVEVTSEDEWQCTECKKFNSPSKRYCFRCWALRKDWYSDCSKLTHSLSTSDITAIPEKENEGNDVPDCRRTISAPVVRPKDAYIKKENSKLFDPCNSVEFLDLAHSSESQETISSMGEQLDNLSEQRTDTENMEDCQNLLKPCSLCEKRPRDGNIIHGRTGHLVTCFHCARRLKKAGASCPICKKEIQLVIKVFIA

| Compound | target | assay | system | setting | inhibition |
| --- | --- | --- | --- | --- | --- |
| O=C(Nc1ccccc1)Nc1ccccc1 | SRPK3 (Homo sapiens, UniProt Q9UPE1) | binding, KINOMEscan competitive binding | – | concentration not given | 91.6% |
| C[Si](C)(C)C[C@H](CN)CC(=O)O | SK potassium channel, rat | binding, radioligand binding | – | 250 µM, together with: iodinated apamin | -4% |
| COc1ccc(C(=O)Nc2c(-c3cccs3)nc3ccccn23)cc1 | HTR1B | ligand displacement, radioligand | – | 10 µM | < 50% |
| CC(C)C(OC(=O)C(C)(C)C)n1nnnc1CCNC(=S)NCCCC[C@H](NS(=O)(=O)c1cccc(F)c1)C(=O)N[C@@H](Cc1c[nH]c2ccccc12)C(=O)NC1CCC1 (stereo partly drawn) | SIRT3 | deacylase activity | – | 1 µM, together with: NAD+ 500 µM | < 0% |
| CCCCCCCCCCCCNC(=S)NCCCC[C@H](NC(=O)OCc1ccccc1)C(=O)N[C@@H](CC(C)C)C(=O)N[C@@H](CCCNC(=N)N)C(N)=O | SIRT3 | enzyme activity, inhibitor | – | 10 µM | 63% |
| CC(C)(C)CNC(=O)C[C@H](NC(=O)CCc1ccccc1)C(=O)N[C@@H](Cc1cccnc1)C(=O)NCc1ccccc1Cl | chymotrypsin | enzyme activity, inhibitor | – | 100 µM | 0% |
| CC(C)C[C@H]1CNC(=O)N2C[C@H](C[C@H]2C(N)=O)NC(=O)CCNC(=N)NCCCCNC(=N)NCCCC[C@H](NC(=O)[C@H](Cc2ccccc2)NC(=O)[C@H](CO)NC(=O)[C@@H](N)[C@@H](C)O)C(=O)N[C@@H](CCC(=O)O)C(=O)N[C@@H](Cc2ccc(O)cc2)C(=O)N[C@@H](Cc2c[nH]c3ccccc23)C(=O)N[C@@H](C)C(=O)N[C@@H](CC(C)C)CNC(=O)N1 | Protein Mdm4 (MDM4, Homo sapiens, UniProt O15151) | protein-protein interaction, inhibitor, TR-FRET | – | 0.1 µM | 23% |
| Cc1ccc(CN(C)C(=O)C(CCc2ccccc2)NC(=O)C(NC(=O)c2ccc(OCc3ccccc3)cc2)C(C)O)cc1 (stereo not drawn) | Prothrombin (F2, Homo sapiens, UniProt P00734) | enzyme activity, inhibitor | – | 100 µM | 21% |
| Cc1ccnc(OC[C@H]2CN(CCN3CCc4ccccc43)CCO2)c1 | HTR1B | radioligand binding | – | concentration not given, together with: [3H]5-CT | -1.1% |
| CN(C)C/C=C/C(=O)Nc1ccc2nc(NCCCCCN(C)C)nc(NCCCCCCN(C)C)c2c1 | KMT5B (Homo sapiens, UniProt Q4FZB7) | enzyme activity, inhibitor, radiometric | – | 10 µM | 66% |
| CCCCCCCCCCCCNC(=S)NCCCC[C@H](NC(=O)OCc1ccccc1)C(=O)NC(C)(C)C(=O)N[C@@H](CCCNC(=N)N)C(N)=O | SIRT3 | enzyme activity, inhibitor | – | 10 µM | < 5% |
| CN(Cc1ccc(/C=C/C(=O)NO)cc1)CC12CC3CC(CC(C3)C1)C2 | human CGRP receptor | agonist radioligand binding | – | 0.05 µM | -8% |
| S=C(NCCCN1CCN(CCCNC(=S)NCc2ccccc2)CC1)NCc1ccccc1 | CXCR4 (Homo sapiens, UniProt P61073) | arrestin recruitment, DiscoverX arrestin | – | 30 µM | 68% and 59% |
| COc1ncc2nc(C)n(Cc3ncc(S(N)(=O)=O)cc3F)c2c1-c1ccccc1 | HTR1B | antagonist, cell-based | – | 10 µM | -9.01% |
| COc1ccc(C2CC(=O)c3c(O)c(Br)c(O)c(Br)c3O2)cc1O (stereo not drawn) | AMY2 (Sus scrofa, UniProt P00690) | enzyme activity, inhibitor | – | 50 µM, 30 min | 40% |
| CC(=O)C12NC(C)(C)CC1(C)C(=O)C1=C2c2c(c3c4n2C(C)(C)CC2=C4C4(CC(C)(C)NC(C)(C4)C2=O)CC3(C)C)C(=O)C(C)(C)N1 (single isomer, unassigned; (+)) | P2X purinoceptor 4 (P2RX4, Homo sapiens, UniProt Q99571) | ion current, antagonist, whole-cell patch clamp | HEK293T | 10 µM | 8.71 ± 0.06% |
| CC1CCN(C(=O)c2cccc(NC(=O)Nc3ccc([N+](=O)[O-])cc3)c2)CC1 | Penicillin-binding protein 4 (Staphylococcus aureus, UniProt P72355) | Bocillin-FL binding, fluorescence polarization | – | 50 µM, 1 µM PBP4 | 81.4 ± 9.2% |
| O=C1c2sc(-c3ccc(N4CCC(F)C4)nc3F)nc2CCN1c1cccnc1 (stereo not drawn) | GABA transporter | radioligand binding | – | 1 µM, together with: antagonist radioligand | -7% |
